Earlier results, collected from citations in different studies.
Protocols differ between the studies behind these lines. Numbers after ± are the reported error. In brackets after ≈: the same amount, converted by molar mass.

`N#C[C@@]1(c2ccc3c(N)ncnn23)O[C@H](CO)[C@@H](O)[C@H]1O` has an oral bioavailability of 85% (dog).
The logD of `CN(C)CCc1c[nH]c2ccc(C[C@H]3COC(=O)N3)cc12` is reported as -1.47.
`CO[C@@H](C)Cn1c(=O)n(C)c2cnc3ccc(-c4cncc(C(C)(C)O)c4)cc3c21` — result for “patients with related adverse event”: 3.1% (measured: grade ≥3 rash; cancer patients; dose not given, monotherapy).
For `C[C@@]1(O)CCC[C@H]1n1c(=O)c(C(F)F)cc2cnc(NC3CCN(S(C)(=O)=O)CC3)nc21`, the free C24h was 0.032 µM (mouse; oral, 50 twice daily).
For `Cn1ncnc1[C@H]1c2n[nH]c(=O)c3cc(F)cc(c23)N[C@@H]1c1ccc(F)cc1`, the Cmax was 19.5 ng/mL (rat; 0.05 mg/kg once daily, day 28).
For `CC(C)(c1ccc(O)cc1)c1ccc(O)cc1`, the half-life was 3 h (rat; oral, 0.1 mg/kg).
`Cc1cc(Nc2ccc(S(F)(F)(F)(F)F)cc2)n2ncnc2n1` gave a kinetic solubility of 71 µM (≈ 24.9 µg/mL) (10 mM HCl; pH 2).
`COc1ccc2[nH]c([S+]([O-])Cc3ncc(C)c(OC)c3C)nc2c1` (centres unmarked) has an AUC of 3740 ng·h/mL (human obese subjects; oral tablet, 20 mg twice daily, day 7).
`OC(Cn1cncn1)(Cn1cncn1)c1ccc(F)cc1F` has an AUC increase of 184% (perpetrator, measured: (S)-warfarin; human; dose not given; reference: without compound).
With `NC(=O)N1c2ccccc2C=Cc2ccccc21` the protective index was 1.8 (mouse; i.p., 6 Hz seizure test, 32 mA).
The AUC(0-42 days) of `COc1cc2c(Oc3ccc4[nH]c(C)cc4c3F)ccnc2cc1OCC1(N)CC1` is reported as 2240 ± 814 ng·h/mL (human; 16 mg/day, two cycles).
For `Nc1ccn([C@@H]2CS[C@H](CO)O2)c(=O)n1`, the oral bioavailability was 17 to 53% (woodchuck; 20 mg/kg).
For `c1ccc2c(c1)ccc1cc3c(ccc4ccccc43)cc12`, the logKow was 7.22 (slow stirring).
`O=C(c1cccnc1-c1ccncc1)N1CCC(O)(Cc2ccccc2)CC1` has a dose recovered of 2.7% (faeces; oral, 300 mg [14C]-labelled, single, time not given).
For `CN(C)C(=N)N=C(N)N`, “rate constant k21” read 0.0104 min⁻¹ (patients with liver failure).
For `O=C(O)CN1CCN(CC(=O)O)CCN(CC(=O)O)CCN(CC(=O)O)CC1`, “protonation constant (log)” read 9.5 (pH-potentiometry, measured: logK2H; 0.15 M NaClO4; 25 °C).
For `CC1(C)CCC(CN2CCN(c3ccc(C(=O)NS(=O)(=O)c4ccc(NCC5CCOCC5)c([N+](=O)[O-])c4)c(Oc4cnc5[nH]ccc5c4)c3)CC2)=C(c2ccc(Cl)cc2)C1`, “steady-state plasma concentration” read 0.808 ± 0.593 µg/mL (Japanese patients, plasma; 400 mg, phase 1/2 study).
Under “serious TEAE incidence”, `Cc1cc(C)c(CNC(=O)c2cc(Cl)c3c(c2C)O[C@@](C)([C@H]2CC[C@H](N(C)C)CC2)O3)c(=O)[nH]1` is recorded as 45.5% (relapsed/refractory ATLL patients; 200 mg/day, together with: fluconazole).
For `Cc1c(C(=O)O)ccc2c3n(nc12)[C@@H]1[C@H](C3)N(CC2CC2)[C@@]2(C(=O)Nc3cc(Cl)ccc32)[C@H]1c1cccc(Cl)c1F`, the Kp was 0.26 (Abcb1a/b-/- mice, brain, plasma).
`CN[C@@H](C)C(=O)N[C@H]1CN(S(=O)(=O)c2cccc(S(=O)(=O)N3CC[C@H]4CC[C@@H](C(=O)NC(c5ccccc5)c5ccccc5)N4C(=O)[C@@H](NC(=O)[C@H](C)NC)C3)c2)CC[C@H]2CC[C@@H](C(=O)NC(c3ccccc3)c3ccccc3)N2C1=O` gave a terminal half-life of 0.81 to 5.04 h (cynomolgus monkey; dose not given).
`CO[C@]1(C(=O)N[C@@H](C)c2ccc(-n3cc(F)cn3)nc2)CC[C@H](c2nc(C)cc(Nc3cc(C)[nH]n3)n2)CC1` — result for tolerability: “not toxic” (healthy human; 200 mg single, together with: itraconazole).
With `CN(C)C(=O)c1cc2cnc(Nc3ccc(N4CCNCC4)cn3)nc2n1C1CCCC1` the oral bioavailability was 64% (dog; dose not given).
`CCN1CCN(Cc2ccc(Nc3ncc(F)c(-c4cc(F)c5nc(C)n(C(C)C)c5c4)n3)nc2)CC1` has an AUC(0-t) of 3960 ng·h/mL (human; 150 mg single dose, tablet).
`C=CCCC(=O)O` gave an EC10 of 747 µM (scoliosis or lordosis; zebrafish embryo; nominal concentration).
For `Cn1cc(C[C@@H](N)C(=O)O)c2ccccc21`, tolerability read “not toxic” (patients; oral, 1200 mg twice daily, phase II trial).
The EC10 of `CCCCC(C)C(=O)O` (centres unmarked) is reported as over 1000 µM (craniofacial deformation; zebrafish embryo; nominal concentration).
`NC[C@@]1(CC(=O)O)[C@@H]2CC[C@H]3C[C@@H]2[C@@H]1C3` has a faecal excretion of 6.55% (healthy humans; 40 mg; reference: dose).
`COc1cc(N2CCC3(CCN(C)CC3)CC2)ccc1Nc1ncc(Cl)c(Nc2ccccc2P(C)(C)=O)n1` gave an excretion of 20.2% (human, urine; dose not given).
The Cmax, total of `Cc1cc(-c2nccc3c2ccn3CC(=O)Nc2ccc(-c3cnccn3)cn2)ccn1` is reported as 13.6 µM (rat; 20 mg/kg/day, 1 month, repeat dosing).
`Cc1ccsc1C(=CCCN1CCC[C@@H](C(=O)O)C1)c1sccc1C` gave a protective index of 20 (mouse; i.p., corneal kindling model).
The oral bioavailability of `Cc1cn([C@@H]2C[C@@H](O)[C@H](CO)O2)c(=O)[nH]c1=O` is reported as 60% (rat; 10 mg/kg).
The AUC(0-8h) of `C=CC(=O)N1CCC([C@@H]2CCNc3c(C(N)=O)c(-c4ccc(Oc5ccccc5)cc4)nn32)CC1` is reported as 595 ± 338 ng·h/mL (human patients; oral, 80 mg once daily, day 8).
With `CS(=O)(=O)CCNCc1ccc(-c2ccc3ncnc(Nc4ccc(OCc5cccc(F)c5)c(Cl)c4)c3c2)o1` the steady-state Cmax was 2430 ng/mL (human, plasma; 1250 mg/day, 4 h).
For `COc1cc(C(=O)O)ccc1NC(=O)[C@@H]1N[C@@H](CC(C)(C)C)[C@](C#N)(c2ccc(Cl)cc2F)[C@H]1c1cccc(Cl)c1F`, “patients with related thrombocytopenia” read 33% (patients with solid tumours or lymphomas; dose not given, grade ≥3, first-in-human trials).
For `O=C(c1cc(Cc2n[nH]c(=O)c3ccccc23)ccc1F)N1CCN(C(=O)C2CC2)CC1`, “AUC at steady state” read 48000 ng·h/mL (human; oral, dose not given, capsule).
`O=C(c1cccnc1-c1ccncc1)N1CCC(O)(Cc2ccccc2)CC1` gave a TEAE incidence of 80.3% (children with Dravet or Lennox-Gastaut syndrome; dose not given).
For `Cn1c(Cn2ccc(C(F)(F)F)c(Oc3cc(Cl)cc(C#N)c3)c2=O)n[nH]c1=O`, the Dizziness incidence was 5% (human subjects; dose not given, up to 48 weeks).
`CCCCCC(CCC)C(=O)O` (centres unmarked) gave an EC10 of 41 µM (scoliosis or lordosis; zebrafish embryo; nominal concentration).
`CCN(CC)CCN(CCNCCc1ccc(O)c2[nH]c(=O)sc12)C(=O)CCOCCc1cccc2ccccc12` — result for “lung deposited fraction”: 0.4 (human; inhaled).
`COC(=O)N[C@H](C(=O)N1CCC[C@H]1c1nc(-c2ccc3c(c2)O[C@@H](c2ccccc2)n2c-3cc3cc(-c4c[nH]c([C@@H]5CCCN5C(=O)[C@@H](NC(=O)OC)C(C)C)n4)ccc32)c[nH]1)C(C)C` gave an AUC(0-24) difference of at most 15% (HCV genotype 1 patients; 50 mg, 10 days; reference: healthy volunteers).
Under “thrombocytopenia, grade ≥3, treatment-related”, `Cc1c(C(=O)O)ccc2c3n(nc12)[C@@H]1[C@H](C3)N(CC2CC2)[C@@]2(C(=O)Nc3cc(Cl)ccc32)[C@H]1c1cccc(Cl)c1F` is recorded as 25.9% (human patients; dose not given, phase I trial; reference: patients).
`C=CC(=O)NC1CCN(c2ncc3ncnc(Nc4ccc(Oc5ccc6c(c5)ncn6C)c(C)c4)c3n2)CC1` gave a rash incidence of 33% (patients, NSCLC, HER2-mutant, previously treated; 120 mg once daily, treatment-related any grade).
With `CCOc1cc2ncc(C#N)c(Nc3ccc(OCc4ccccn4)c(Cl)c3)c2cc1NC(=O)/C=C/CN(C)C` the AUC(0-24) was 939 ng·h/mL (human; 240 mg, single dose).
The renal clearance of `C[C@H](Cn1cnc2c(N)ncnc21)OCP(=O)(O)O` is reported as 2.7 mL/min/kg (human).
For `CCC(C)n1ncn(-c2ccc(N3CCN(c4ccc(OCC5COC(Cn6cncn6)(c6ccc(Cl)cc6Cl)O5)cc4)CC3)cc2)c1=O` (centres unmarked), “fraction unbound in plasma” read 0.016 (plasma).
`Nc1nc2c(ncn2COCCO)c(=O)[nH]1` gave an oral bioavailability of 2.18% (rat).
`N=C(N)NCCC[C@H](NC(=O)[C@H](CCCNC(=N)N)NC(=O)[C@H](CCCCN)NC(=O)[C@H](CCC(N)=O)NC(=O)[C@H](CCCCN)NC(=O)[C@H](Cc1ccc(O)cc1)NC(=O)[C@@H](N)CCCCN)C(=O)N[C@@H](CO)C(=O)N[C@@H](Cc1ccc(O)cc1)C(=O)N[C@@H](CCCCN)C(=O)O` gave an NOAEL of 1200 µg/kg/day (rat; intravenous, dose not given, repeated-dose toxicity).
The biliary/fecal elimination of `Cc1cc(C[C@@H](NC(=O)N2CCC(c3cc4ccccc4[nH]c3=O)CC2)C(=O)N2CCN(C3CCN(C)CC3)CC2)cc2cn[nH]c12` is reported as over 80% (human; intravenous, 5 mg single dose).
For `C=C(F)C(=O)N1CCN(c2nc(OC[C@@H]3CCCN3C)nc3c2CCN(c2cccc4cccc(Cl)c24)C3)C[C@@H]1CC#N`, “oral clearance CL/F” read 37 L/h (patients, advanced solid tumours; oral, dose not given).
The elimination half-life of `CCCN(CCC)CCc1cccc2c1CC(=O)N2` is reported as about 4 h (dog; intravenous).
For `C[C@@H](Oc1cc(-c2cnn(C3CCNCC3)c2)cnc1N)c1c(Cl)ccc(F)c1Cl`, “treatment discontinuation rate” read 5% (patients; dose not given, monotherapy, prior trial).
For `O=C1Nc2c(C(F)(F)F)cccc2[C@@]1(c1ccc(O)cc1)c1ccc(OC(F)(F)F)cc1`, the tolerated dose was over 150 mg/kg (mouse; oral).
For `O=C[C@H](F)[C@@H](O)[C@H](O)[C@H](O)CO` [fluorine-18 labelled], “absorbed dose myocardium” read 32.8 µGy/MBq.
